Assay results collected from several papers.
Every numbered part comes from another study and shows a few of its results, in no order. “And” joins repeats or separate records; there may be more than shown. Changes are numbered by the printed parent chain.

Block 1
Target: CREBL2, bZIP domain (human)
Technique: DHFR protein complementation
Medium: yeast
Notes: single substitutions, most at no-binding floor
Reference: wild-type JUN-FOS pair
Direction: higher = stronger binding
Starting sequence: JUN, bZIP domain (human); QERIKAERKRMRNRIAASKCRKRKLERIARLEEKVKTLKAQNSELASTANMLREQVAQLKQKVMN; partner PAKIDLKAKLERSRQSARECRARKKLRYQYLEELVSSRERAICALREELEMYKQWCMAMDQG
`L52T` gave a binding fitness of -1.58 natural log.
The binding fitness of `T48C` is reported as -1.42 natural log.
For `E32F`, the binding fitness was -1.49 natural log.
`M51C` has a binding fitness of -1.5 natural log.
With `A46W` the binding fitness was -1.42 natural log.
`V35S` has a binding fitness of -1.53 natural log.
The binding fitness of `V56G` is reported as -1.55 natural log.
With `K36Q` the binding fitness was -1.29 natural log.
With `S43D` the binding fitness was -1.4 natural log.
With `K39C` the binding fitness was -1.42 natural log.
With `M51N` the binding fitness was -1.23 natural log.
`M51V` has a binding fitness of -1.46 natural log.
`T48Q` gave a binding fitness of -1.24 natural log.
`A49H` has a binding fitness of -1.53 natural log.
`Q41F` gave a binding fitness of -1.45 natural log.
`S43T` gave a binding fitness of -1.53 natural log.
For `N42G`, the binding fitness was -1.5 natural log.
`K34L` gave a binding fitness of -1.22 natural log.
`E32V` gave a binding fitness of -1.51 natural log.
`L31E` has a binding fitness of -1.56 natural log.
The binding fitness of `R53K` is reported as -1.56 natural log.
With `A49L` the binding fitness was -1.39 natural log.
For `E33P`, the binding fitness was -1.54 natural log.
`E44R` has a binding fitness of -1.43 natural log.
For `S43P`, the binding fitness was -1.55 natural log.

Block 2
Target: Sal-like protein 4, full length isoform A (SALL4, Homo sapiens, UniProt Q9UJQ4, residues 1-1053)
Sequence of UniProt Q9UJQ4 (whole entry, looked up): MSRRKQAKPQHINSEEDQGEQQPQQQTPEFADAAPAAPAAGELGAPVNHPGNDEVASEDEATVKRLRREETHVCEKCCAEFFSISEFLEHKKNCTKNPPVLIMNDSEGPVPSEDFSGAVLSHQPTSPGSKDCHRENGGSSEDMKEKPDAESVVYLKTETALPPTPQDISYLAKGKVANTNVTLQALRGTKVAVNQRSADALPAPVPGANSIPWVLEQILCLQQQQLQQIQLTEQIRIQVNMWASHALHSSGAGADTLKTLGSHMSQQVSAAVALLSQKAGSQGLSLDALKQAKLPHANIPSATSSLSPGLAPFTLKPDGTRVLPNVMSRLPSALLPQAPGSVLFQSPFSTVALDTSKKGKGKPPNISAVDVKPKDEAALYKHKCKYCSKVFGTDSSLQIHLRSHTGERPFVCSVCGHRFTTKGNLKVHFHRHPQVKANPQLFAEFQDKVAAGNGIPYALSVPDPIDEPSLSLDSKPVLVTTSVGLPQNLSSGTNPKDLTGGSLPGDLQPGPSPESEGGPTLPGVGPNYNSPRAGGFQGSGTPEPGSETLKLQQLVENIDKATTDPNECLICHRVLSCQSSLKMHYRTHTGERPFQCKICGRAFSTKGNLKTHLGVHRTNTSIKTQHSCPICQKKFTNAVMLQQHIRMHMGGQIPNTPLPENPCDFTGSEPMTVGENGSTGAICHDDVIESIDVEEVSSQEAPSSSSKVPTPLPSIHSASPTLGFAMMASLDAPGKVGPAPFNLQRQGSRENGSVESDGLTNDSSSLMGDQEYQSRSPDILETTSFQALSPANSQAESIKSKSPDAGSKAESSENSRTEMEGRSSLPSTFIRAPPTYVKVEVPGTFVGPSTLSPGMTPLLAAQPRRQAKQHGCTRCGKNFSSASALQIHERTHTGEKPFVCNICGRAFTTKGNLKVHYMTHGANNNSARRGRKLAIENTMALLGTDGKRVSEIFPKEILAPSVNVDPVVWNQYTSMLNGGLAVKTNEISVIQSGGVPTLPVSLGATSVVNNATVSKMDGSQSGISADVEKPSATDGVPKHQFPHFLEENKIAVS
Technique: universal PBM
Form: double-stranded DNA, one strand shown
Medium: in vitro
Tested at: 600 nM
Notes: 8-mer, flanks averaged, mean of replicates
Direction: higher = stronger binding
`GGAGGTGA` has an E-score of -0.147.
`CGGACCGA` has an E-score of -0.256.
With `CAGCCCCG` the E-score was -0.356.
`CCACACAC` has an E-score of -0.283.
`AGAAGTCG` has an E-score of -0.148.
The E-score of `AAGACATT` is reported as 0.111.
`CCTCAGCA` has an E-score of -0.239.
For `CGTGCGAC`, the E-score was -0.268.
With `AAGCACGC` the E-score was -0.146.
`CTCCGTAC` has an E-score of -0.294.
`TCATCCCA` gave an E-score of 0.0117.
`AGATCGTA` has an E-score of -0.0549.
For `CTCGAGCA`, the E-score was -0.0693.
`GCGGTCCA` gave an E-score of -0.379.
`AGTTACGC` has an E-score of -0.0515.
`GGATTACA` gave an E-score of 0.104.
The E-score of `AGACGCAA` is reported as 0.0317.
For `AGTGCGTC`, the E-score was -0.206.

Block 3
Target: Interferon regulatory factor 5, full length, phosphomimetic (IRF5, Homo sapiens, UniProt Q13568-2, residues 1-514, S451D/S453D/S456D/S462D)
Technique: protein-binding microarray
Form: double-stranded DNA, one strand shown
Medium: in vitro
Tested at: 940 nM top
Notes: 60-bp whole probe
With: salmon DNA 0.4 mg/ml
Reference: random background probes
Direction: higher = stronger binding
Shared flanks, not repeated: GCCTAGCAC … GTCTTGATTCGCTTGACGCTGCTG
Under “fitted relative affinity”, `TTAGGTCTCCTTCTCCTTTCGTGCTAG` is recorded as 0.654 z-score.
Under “fitted relative affinity”, `GACGATATCAGTTTCGGGACGTGCTAG` is recorded as 4.14 z-score.
Under “fitted relative affinity”, `GAGGGTTTCCTTCTCCTGACGTGCTAG` is recorded as 1.34 z-score.
Under “fitted relative affinity”, `GACGGACTGCTACTGCTGACGTGCTAG` is recorded as -0.617 z-score.
For `GACGGTCTGCTTCTCCTGACGTGCTAG`, “fitted relative affinity” read 0.118 z-score.
Under “fitted relative affinity”, `GAAGATCTCAGTCTCGAGACGTGCTAG` is recorded as 1.26 z-score.
For `TCCTGTATGGATGTGTCTTAGTGCTAG`, “fitted relative affinity” read -0.337 z-score.
`GTCTCTGTTCTTTTCAGTCCGTGCTAG`: “fitted relative affinity” 3.29 z-score.
For `GTCGGTCTCCTACTGCTGACGTGCTAG`, “fitted relative affinity” read 0.247 z-score.
For `TCCACTTTGACTTAAGAGGCGTGCTAG`, “fitted relative affinity” read -0.355 z-score.
Under “fitted relative affinity”, `GACGATTCCAGTTTGGAGACGTGCTAG` is recorded as 0.176 z-score.
Under “fitted relative affinity”, `TTAGATCTCAGTTTCGATTCGTGCTAG` is recorded as 7.62 z-score.
Under “fitted relative affinity”, `TTAAGTCTCGGTATCGGTTAGTGCTAG` is recorded as 8.53 z-score.
`TTCTGAACCATTTTGGTTTTGTGCTAG` — result for “fitted relative affinity”: -0.028 z-score.
`TCAAATTAGAATTTAAAACTGTGCTAG` — result for “fitted relative affinity”: -0.388 z-score.
`TTAGGTTTCGGGTTTCGGTGAGTGCTA` — result for “fitted relative affinity”: 11.3 z-score.
For `TCATTTTTATCAATCATACTGTGCTAG`, “fitted relative affinity” read 0.851 z-score.
`TTAGGTTTCGACCCTGGGTTAGTGCTA`: “fitted relative affinity” 7.6 z-score.

Block 4
Target: CCNB2, cyclin fold, Cln2 fusion (human)
Technique: yeast growth competition, sequencing
Medium: yeast
Notes: weak parent motif
Reference: not given
Direction: higher = stronger binding
Starting sequence: CDC6 docking peptide (human); TLKGRRLVFDNQL; partner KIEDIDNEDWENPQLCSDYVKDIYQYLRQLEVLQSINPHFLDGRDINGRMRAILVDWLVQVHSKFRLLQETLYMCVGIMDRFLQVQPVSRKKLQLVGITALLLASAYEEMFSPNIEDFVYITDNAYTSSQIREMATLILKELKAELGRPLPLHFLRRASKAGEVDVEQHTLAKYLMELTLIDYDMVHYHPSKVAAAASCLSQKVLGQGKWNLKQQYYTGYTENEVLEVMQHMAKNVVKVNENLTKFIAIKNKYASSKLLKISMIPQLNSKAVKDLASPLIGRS
`G4M`: “normalised enrichment score” 0.575.
`Q12T`: “normalised enrichment score” -0.246.
`N11C` — result for “normalised enrichment score”: 0.142.
For `T1D`, “normalised enrichment score” read -0.435.
`F9G`: “normalised enrichment score” -0.473.
Under “normalised enrichment score”, `K3C` is recorded as -0.00283.
Under “normalised enrichment score”, `L13Q` is recorded as 0.0752.
`L7T` — result for “normalised enrichment score”: -0.143.
`Q12D` — result for “normalised enrichment score”: 0.229.
Under “normalised enrichment score”, `N11M` is recorded as 0.0289.
For `R6V`, “normalised enrichment score” read 0.44.
`L13T`: “normalised enrichment score” -0.104.
`F9C` — result for “normalised enrichment score”: 0.0427.
Under “normalised enrichment score”, `L13G` is recorded as -0.0513.
`L7F` — result for “normalised enrichment score”: 0.12.
Under “normalised enrichment score”, `T1L` is recorded as -0.00134.
`F9V`: “normalised enrichment score” -0.267.
Under “normalised enrichment score”, `K3M` is recorded as 0.224.
For `D10W`, “normalised enrichment score” read 0.279.

Block 5
Target: Histone acetyltransferase KAT6A, both winged helices, GST fusion (KAT6A, Homo sapiens, UniProt Q92794, residues 1-181)
Technique: protein binding microarray
Form: double-stranded DNA, one strand shown
Medium: in vitro
Tested at: not given
Notes: 8-mer, flanks averaged, mean of 2 arrays, mostly near background
Reference: not given
Direction: higher = stronger binding
Residues (chain): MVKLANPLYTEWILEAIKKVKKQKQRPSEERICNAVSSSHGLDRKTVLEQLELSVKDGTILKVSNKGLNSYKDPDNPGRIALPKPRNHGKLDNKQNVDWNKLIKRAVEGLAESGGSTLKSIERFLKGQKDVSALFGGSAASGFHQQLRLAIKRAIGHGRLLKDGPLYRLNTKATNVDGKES
For `CTCGTTCA`, the E-score was 0.0103.
With `ACCAAGGT` the E-score was -0.153.
`TGCAGAAA` has an E-score of 0.0295.
For `CGCTCCCC`, the E-score was 0.127.
With `CTTGACCC` the E-score was -0.0382.
`CAGGAGAC` has an E-score of -0.0771.
The E-score of `GCATGGGA` is reported as -0.0835.
With `TAGAACCA` the E-score was -0.234.
`GAAGAATA` gave an E-score of -0.141.
`CTAAAGAC` gave an E-score of -0.0452.
For `CAAGTGTG`, the E-score was -0.197.
The E-score of `GCTGCCCC` is reported as 0.0788.
For `AGTCACCG`, the E-score was 0.18.
The E-score of `CATACCGG` is reported as 0.21.
With `ATTGCACG` the E-score was 0.0258.
`AGCGACTA` gave an E-score of -0.13.
With `CATAGTCC` the E-score was -0.0376.
`AACCTAAT` has an E-score of -0.037.
The E-score of `ATTAGGTA` is reported as -0.0998.
`TCAGACGA` gave an E-score of -0.179.
With `ATGATTAC` the E-score was -0.0169.
`CAGCAGAG` gave an E-score of -0.119.
With `GGACTGGA` the E-score was -0.125.
`GGAGGCGA` has an E-score of -0.0288.
`CTATGAAG` has an E-score of -0.0419.

Block 6
Target: ABI1, truncated, D143A, DHFR fusion (Arabidopsis thaliana)
Technique: DHFR PCA, deep sequencing
Medium: yeast
Notes: methotrexate growth selection, single substitutions
With: (+)-ABA 58 µM
Reference: wild-type fitted maximum
Direction: higher = stronger binding
Starting sequence: PYL1, truncated, DHFR fusion (Arabidopsis thaliana); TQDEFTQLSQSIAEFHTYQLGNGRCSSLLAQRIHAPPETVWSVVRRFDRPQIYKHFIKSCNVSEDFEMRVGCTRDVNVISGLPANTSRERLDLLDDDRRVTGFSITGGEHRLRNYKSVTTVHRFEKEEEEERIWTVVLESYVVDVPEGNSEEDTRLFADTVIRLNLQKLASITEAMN; partner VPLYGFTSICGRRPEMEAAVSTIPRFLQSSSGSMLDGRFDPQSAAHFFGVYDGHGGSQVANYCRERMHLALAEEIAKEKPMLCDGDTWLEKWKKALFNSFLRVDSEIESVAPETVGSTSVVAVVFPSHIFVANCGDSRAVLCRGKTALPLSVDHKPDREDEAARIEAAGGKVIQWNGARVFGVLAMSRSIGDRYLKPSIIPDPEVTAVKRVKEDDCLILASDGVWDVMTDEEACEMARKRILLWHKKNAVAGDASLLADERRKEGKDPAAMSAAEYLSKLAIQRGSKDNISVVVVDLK
`V145I`: “relative binding score” 81.9%.
Under “relative binding score”, `D92M` is recorded as 45.8%.
For `P146D`, “relative binding score” read 12.2%.
`R113Y`: “relative binding score” 71.2%.
Under “relative binding score”, `E109A` is recorded as 76.3%.
For `M176Q`, “relative binding score” read 83.3%.
For `K58D`, “relative binding score” read 68.6%.
`L82G`: “relative binding score” 23.3%.
Under “relative binding score”, `E129H` is recorded as 105%.
For `I133L`, “relative binding score” read 90.7%.
`E139D`: “relative binding score” 6.05%.
Under “relative binding score”, `A13D` is recorded as 85%.
Under “relative binding score”, `P50T` is recorded as -11.5%.
`R69N`: “relative binding score” 85.7%.

Single results of other studies
`PhoQ, residues 284 288 289 292 302 303 AANNSF` gave a fold induction of 17.2 and 10.7 (PhoP, residues 12 14 15 18 19 LWHCS (Escherichia coli, UniProt P23836); Sort-seq, item: YFP reporter; E. coli; PhoQ-PhoP variant library, with: 10 µM Mg2+; reference: high Mg2+ state, higher = stronger signaling).

Some of these lines once more (block 1):
For `E32F`, the binding fitness was -1.49 natural log.
`A49H` has a binding fitness of -1.53 natural log.
`E32V` gave a binding fitness of -1.51 natural log.
The binding fitness of `V56G` is reported as -1.55 natural log.
For `N42G`, the binding fitness was -1.5 natural log.
With `K36Q` the binding fitness was -1.29 natural log.
`V35S` has a binding fitness of -1.53 natural log.
`L52T` gave a binding fitness of -1.58 natural log.
For `S43P`, the binding fitness was -1.55 natural log.
`M51V` has a binding fitness of -1.46 natural log.
With `A46W` the binding fitness was -1.42 natural log.
`Q41F` gave a binding fitness of -1.45 natural log.
With `S43D` the binding fitness was -1.4 natural log.
`E44R` has a binding fitness of -1.43 natural log.
With `M51N` the binding fitness was -1.23 natural log.
With `A49L` the binding fitness was -1.39 natural log.
